# Experimental data of several laboratories.
# Each line is one published result; not all experiments were run side by side. ± gives the spread as reported.
Compound,cell line,assay,conditions,EC50 [µM]
CCOc1ccccc1C1CC(c2ccccc2)Nc2nc(N)nn21 (stereo not shown),MEF with TRE-FLAG-LMNB1,"LMNB1 reduction, high-content screening",,162
O=C1N=C(N2CCCCC2)S/C1=C\c1cc(C(=O)O)ccc1O,NG108-15,"intracellular chloride reduction, Clomeleon fluorescence",5 h,10.1
C[C@H](Nc1ccc2c(c1)OCCn1cc(N3C(=O)OC[C@H]3C(F)F)nc1-2)C(N)=O,HuH-28,"cell growth, CellTiter-Glo",120 h,34
O=C1N=C(N2CCOCC2)S/C1=C\c1ccccc1O,NG108-15,"intracellular chloride reduction, Clomeleon fluorescence",5 h,3.6
Cc1c(CNC(=O)c2nn3c(c2Cl)N[C@@H](c2ccccc2)C[C@@H]3C(F)(F)F)cnn1C,MEF with TRE-FLAG-LMNB1,"LMNB1 reduction, high-content screening",,> 250
C[C@]12CC[C@@H]3c4ccc(O)cc4C[C@@H](CCCCCCCCC[S+]([O-])CCCC(F)(F)C(F)(F)F)[C@H]3[C@@H]1CC[C@@H]2O (stereo partly shown),"MCF7 3xERE-luc, steroid-deprived","ERE luciferase reporter, agonist",,7.94e-05
Nc1nc2n(n1)C(c1ccccc1)CC(c1ccccc1)N2 (stereo not shown),MEF with TRE-FLAG-LMNB1,"LMNB1 reduction, high-content screening",,> 200
CN1CCN(C2=NC(=O)/C(=C/c3ccccc3O)S2)CC1,NG108-15,"intracellular chloride reduction, Clomeleon fluorescence",5 h,1.57
Fc1ccc(Oc2ccc(Nc3ccc4ncc(OCC5CCNCC5)nc4c3)cc2)cc1,Kasumi-1,"cell growth, XTT",7 days,0.92 ± 0.01
O=C1N=C(N2CCCCC2)S/C1=C\c1cc(F)ccc1O,NG108-15,"intracellular chloride reduction, Clomeleon fluorescence",5 h,4.3
COc1ccc(C2CC(c3ccc(Cl)cc3Cl)Nc3nc(N)nn32)cc1OC (stereo not shown),MEF with TRE-FLAG-LMNB1,"LMNB1 reduction, high-content screening",,> 167
O=C(c1cc(Cc2n[nH]c(=O)c3ccccc23)ccc1F)N1CCN(C(=O)C2CC2)CC1,CAPAN-1 (BRCA2-deficient),"cell proliferation, CellTiter-Glo",168 h,0.31
COc1ccc(C2CC(c3ccccc3Cl)Nc3nc(N)nn32)cc1OC (stereo not shown),MEF with TRE-FLAG-LMNB1,"LMNB1 reduction, high-content screening",,> 250
O=C1N=C(N2CCCCC2)S/C1=C\c1ccc(F)cc1O,NG108-15,"intracellular chloride reduction, Clomeleon fluorescence",5 h,2.99
C[C@]12CC[C@@H]3c4ccc(O)cc4CC[C@H]3[C@@H]1CC[C@@H]2O,"MCF7 3xERE-luc, steroid-deprived","ERE luciferase reporter, agonist",,0.0002
COc1cnc2cccc(N3CCc4c(cc(Cn5ccnc5C)cc4-c4cn(C)nc4C(F)(F)F)C3=O)c2c1,RERF-LC-AI,"cell growth, inhibitor",120 h,> 30
C[C@]12CCCN1CC1=NNC(=O)c3cc(F)cc4[nH]c2c1c34,CAPAN-1 (BRCA2-deficient),"cell proliferation, CellTiter-Glo",168 h,0.96
c1cc(-c2cc3ncc(OCC4CCNCC4)nc3cc2-c2cccc(N3CCCCC3)c2)cc(N2CCCCC2)c1,Kasumi-1,"cell growth, XTT",7 days,0.8 ± 0.18
CCn1cc(-c2cc(Cn3ccnc3)cc3c2CCN([C@H](c2cc(OC)ccn2)C2CC2)C3=O)c(C(F)(F)F)n1,Lu-99,"cell growth, inhibitor",120 h,1.08
c1ccc(COc2ccc(Nc3ccc4ncc(OCC5CCNCC5)nc4c3)cc2)cc1,Kasumi-1,"cell growth, XTT",7 days,3.6 ± 0.45
Cc1ncc([N+](=O)[O-])n1CCO,Escherichia coli expressing NfsB_Ec nitroreductase,"growth inhibition, substrate, OD600",4 h,341
CCn1cc(-c2cc(Cn3ccoc3=N)cc3c2CCN([C@@H](C)c2cc(OC)ccn2)C3=O)c(C(F)(F)F)n1,SW1271,"cell growth, inhibitor",120 h,> 30

# Some of these lines once more:
Compound,cell line,assay,conditions,EC50 [µM]
CN1CCN(C2=NC(=O)/C(=C/c3ccccc3O)S2)CC1,NG108-15,"intracellular chloride reduction, Clomeleon fluorescence",5 h,1.57
